Results pooled from the literature.
Numbered parts are unrelated; each lists some results of a single study.

Set 1
Target: Fragile X messenger ribonucleoprotein 1, C-terminal low-complexity region (Fmr1, Mus musculus, UniProt P35922)
Method: RNA Bind-n-Seq
Form: RNA
Medium: in vitro
Tested at: 200 nM
Setting: whole 134-nt RNA, ends assumed
With: 150 mM LiCl
Relative to: input library
Direction: higher = stronger binding
Endpoint: log2 enrichment
All molecules: 7-deaza-guanosine replaces G
Shared flanks, not repeated: GGGAGUUCUACAGUCCGACGAUC … UGGAAUUCUCGGGUGUCAAGG
CAAGUCCUGUGCUACACAUCGUAUGUACCGAAUCGGGUUUGGGAAAAAGGGAGGGAAAGUAUUAUGUUACGCCGUUCGGAUCUGCACUUC: -0.187
CACAGACACCACGCACCCACACAGACACAGAGGGAAGGGGUUGGGAUGGGGACAGGGUGCACAGCAGGGCGGGGUAGGACCCCAGCCCCU: 0.908
UAACUUUAGAGGAGGAUCUGAUGGAUAUGGCAGUGGACGUGGAUUUGGGGAUGGCUUUAAUGGGUAUGGAGGAGGACCUGGAGGUGGCAA: 0.146
CAAGUCCUGUGCUACACAUCGUAUGUACCGAAUCGGGAAAAGGAAAAGGAAAAGGAAAGUAUUAUGUUACGCCGUUCGGAUCUGCACUUC: -0.988
CCUCAAGUCCUGUGCUACACAUCGUAUGUACCGAAUCGGAAGGGAAGGGAAGGAAAGUAUUAUGUUACGCCGUUCGGAUCUGCACUUCCA: -1.57
UCAAGUCCUGUGCUACACAUCGUAUGUACCGAAUCGGGCCCGGCCCGGGGCCCGGAAAGUAUUAUGUUACGCCGUUCGGAUCUGCACUUC: -1.31
ACCAUGCAGGUGGGCAUCUUUGGGAAGUGGGGCAAGGGGGGGAUAGGGAGGGGGGUAACACUUUCGGAACAGGUGGUCCCAGGUCGUUUC: 1.33
GCAGGAAGUAAAAACAAAUGGAAAUGCUUCGGAUAGUGGCAGGGGUGGGGGUUGCUAAGGAACGGGUGGGAUGGGAGUGGGUAAAGAGUU: 1.58
UGGCCCUGGUGGCAUGCGGGGAGGAAGAGGUGGCCUCAUGGAUCGUGGUGGUACCGGUGGAAUGUUCAGAGGUGGCCGUGGUGGAGACAG: -0.271
UUAAAGAAGAGGGUGUGCGGGACGUCCUUAAGGAUGUACUGCUCCCAUGGUACAAUGCCUAUCGCUUCUUAAUCCAGAACGUUCUGAGGC: -2.32
GUCCUGUGCUACACAUCGUAUGUACCGAAUCGGGGAAAGGGGAAAGGGGAAAAAGGGGAAAGUAUUAUGUUACGCCGUUCGGAUCUGCAC: 1.23

Set 2
Target: Histone acetyltransferase KAT6A, winged helix 2, GST fusion (KAT6A, Homo sapiens, UniProt Q92794, residues 85-181)
Method: protein binding microarray
Form: double-stranded DNA, one strand shown
Medium: in vitro
Tested at: not given
Setting: 8-mer, flanks averaged, mean of 2 arrays, mostly near background
Relative to: not given
Direction: higher = stronger binding
Endpoint: E-score
Target sequence (chain): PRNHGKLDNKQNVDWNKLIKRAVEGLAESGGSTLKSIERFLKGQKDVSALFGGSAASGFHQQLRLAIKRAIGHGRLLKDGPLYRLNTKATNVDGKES
CCCGCCCA: 0.186
AAATGCGG: 0.0343
ATCAGCCC: -0.0703
CGATATAC: -0.0318
CCTTTCCG: 0.0417
GACTGCTC: 0.0282
CAGTATTA: 0.0506
GATGAGGA: -0.0721
ATAGAAGC: 0.0264
ATGTCGAC: 0.0216
AAACCCTT: -0.0339
ACTCTCGA: 0.0511
ACAGAAAG: 0.0932
GCGCCTTA: 0.0219
ACAAGGAC: -0.0724
ATGAAGGC: -0.0712
ATTGCAAC: -0.0361

Set 3
Target: Interferon regulatory factor 5, full length, phosphomimetic (IRF5, Homo sapiens, UniProt Q13568-2, residues 1-514, K96S/S451D/S453D/S456D/S462D)
Method: protein-binding microarray
Form: double-stranded DNA, one strand shown
Medium: in vitro
Tested at: 250 nM
Setting: 60-bp whole probe
With: salmon DNA 0.4 mg/ml
Relative to: random background probes
Direction: higher = stronger binding
Endpoint: log fluorescence
Shared flanks, not repeated: GCCTAGCAC … GTCTTGATTCGCTTGACGCTGCTG
TTAGAACTGAGTTTCGATCAGTGCTAG: 9.11 z-score
TCACCACTCATGCCTCTTACTGTGCTA: 0.468 z-score
CTCTAAGACACAAGATCAGAGTGCTAG: -0.296 z-score
TTAGGTATCGACTTTTGGTTAGTGCTA: 4.05 z-score
GACGGACTGCTTATCCCGACGTGCTAG: -0.498 z-score
TCAACTAGGGCATTTAGAACTGTGCTA: -0.421 z-score
TTAGATTTCAGTTCCCATTAGTGCTAG: 2.25 z-score
GACGATTACAGTTTCGAGACGTGCTAG: 4.37 z-score
GGCGGTTTCGGGACTGGGGACGTGCTA: 4.87 z-score
TCAAAACTAAGTTTATTACTGTGCTAG: 0.677 z-score
GGGGTTTCGGATGGGATGTCGTGCTAG: 4.12 z-score
TCAAAATGATTGGTTGAACTGTGCTAG: 0.186 z-score
GACGGTATGCTTTTCCTGACGTGCTAG: -0.0024 z-score
GACGGACTAGGACTGGGGACGTGCTAG: -0.471 z-score
TTAGGACTGGCGTATCGGTTAGTGCTA: 1.91 z-score
AAAACACTAATTTTCATTTTGTGCTAG: 2.25 z-score
GACGGACTGGGATTTCGGGACGTGCTA: 0.327 z-score
ATGTGTTTACAGATGTTTTTGTGCTAG: 0.657 z-score
TTAGATTTCAGTATCGATTCGTGCTAG: 7.72 z-score
TTAGGTTTCCGGTTTCGGTTAGTGCTA: 8.6 z-score
GACGGTCTCCTTTTCCGGACGTGCTAG: 0.138 z-score
TTAGGTTCCGGTGTCGGTTAGTGCTAG: 1.2 z-score

Set 4
Target: RNA binding protein fox-1 homolog 2, RRM domain, GST-SBP tag (RBFOX2, Homo sapiens, UniProt O43251-10, residues 100-194)
Method: RNA Bind-n-Seq
Form: RNA
Medium: in vitro
Tested at: 365 nM
Setting: natural RNA segment, single round, ends assumed
Relative to: no-protein control
Direction: higher = stronger binding
Endpoint: RBNS enrichment (R)
Shared flanks, not repeated: GGGAGUUCUACAGUCCGACGAUC … UGGAAUUCUCGGGUGCCAA
Residues (chain): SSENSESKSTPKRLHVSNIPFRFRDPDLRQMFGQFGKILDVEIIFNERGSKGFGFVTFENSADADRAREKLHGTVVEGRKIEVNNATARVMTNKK
ACAGUCUGCACCUUUGAUACGGUAUUGCAUUUCCAAAGCCACCAAUCCAUUUUGUGGAUUUUAUGUGUUUGUGGCUUAAUAAUCAUAGUAACAACAAUAAUACCUUUUUC: 0.754
ACAGGCAUGCACCAGUGCCGCCUGUGCCCACGUGUGCAGACUGUGGCUGCAGAGACCUUGCGACCAUGUGUAGAUUGCGUGGACCCCGACAAAGGGAAGGCUGCUGUGUA: 0.31
UGAUUAUGAAAGAGUGAAUUUUUCUGGACAGAAAAGGGAGAGCUACCAAAUUGUUUUUUUCUUUUUAAAAGGAAGUUUAAUGUCCGUUGUAUCACAAAUCAGUGUUAAAA: 0.503
UGCACCAGCAUCAAACAUUGUGUGUGUGGAAGGGAAGAAGCCUGUCCAUUCUAAACGCAGUUGCCAGUCUCAUCACUUCAGGUCCUUACGGGCAGGCUCUAGCAACUUUC: 0.627
AAAUUUUACAUGUUCUCUUUUAUGACAGAGAGCAGCACUGGUUCUGUUAUUUUUAAAAUGAAUAAUUGAUUUCUUGAUAGGUGUUUAAUAUUUCUUCCCUCACUGCUGAU: 0.529
AAUUAACUACAUUAGAAACUGACAUCCUUAUACUGGUCUCCCAAGUACAAAAGUAGGAAGAAGCCGUUAGGAGCUGGCUAGAGAGACUCUCGAGUGUGCUGGUGUGCUGU: 0.817
GCUGCUGUCAGCCCCUCCUGUAGGAGCUGGCCCUGCCCAGGCUCCUGACUUCCCUCAGGAAGUCUUUCUGUCUUUCUCCAUCAGUCUGAAAGCCUUAGUUCCCACAGAGG: 0.286
GUAAGUCAGGAUUGGAGUAAGCUGGAAAAGUAUGUUUAGGCAAAUCUUGGAGAAAACCAACCAUAAACUUACAGCUCUAAAAUUCAGAAAGCCCUAAAAUUUCAAACACU: 0.326
AUGAUGCUCCCCUUAAUUGUCACACUGAAAUUAUGUAGUAAAUCAGAAAAUACCUGAAAAGCAACUUUAUUGCUUCAAUCUGGAUAUAAGUAGUUAUUUAUAAAUAGUUA: 0.423
CAUAAACAGCACUUUCAGGCUACAUUUUAAAGUUCUAACGGAAAACUACAUUUGUCUAAGAUAUCUCUGCUAUUGACACAUGAUGCCUUUGAAUGUCAUAGAGCAUAUUU: 1.15
GACUUAACCAAAUCUGAGUGCCCCGGAUGGAGUUGAGCUCUGCAGGUCAGCUAACUCUAGCUCAGGUUUGAGAACUCCUGUUGAGAAGAAGUGUGAGAUUUCUGCUUAAG: 0.764
ACAGGACCAGAUUUUGGAGUCAUGGUCCGGUGUCCUUUUCACUACACCAUGUUUGAGCUCAGACCCCCACUCUCAUUCCCCAGGUGGCUGACCCAGUCCCUGGGGGAAGC: 0.237

Some of these lines once more (set 3):
GACGATTACAGTTTCGAGACGTGCTAG: 4.37 z-score
GGCGGTTTCGGGACTGGGGACGTGCTA: 4.87 z-score
TCAAAACTAAGTTTATTACTGTGCTAG: 0.677 z-score
GGGGTTTCGGATGGGATGTCGTGCTAG: 4.12 z-score
TCAAAATGATTGGTTGAACTGTGCTAG: 0.186 z-score
GACGGTATGCTTTTCCTGACGTGCTAG: -0.0024 z-score
GACGGACTAGGACTGGGGACGTGCTAG: -0.471 z-score
TTAGGACTGGCGTATCGGTTAGTGCTA: 1.91 z-score
